Measurements collected from several papers.
Numbered parts are unrelated; each lists some results of a single study.

Study 1
Target: Fragile X messenger ribonucleoprotein 1, C-terminal low-complexity region (Fmr1, Mus musculus, UniProt P35922)
Method: RNA Bind-n-Seq
Form: RNA
Matrix: in vitro
Tested at: 200 nM
Setting: whole 134-nt RNA, ends assumed
With: 150 mM LiCl
Reference: input library
Direction: higher = stronger binding
Library: 7-deaza-guanosine replaces G
Shared flanks, not repeated: GGGAGUUCUACAGUCCGACGAUC … UGGAAUUCUCGGGUGUCAAGG
Strand | log2 enrichment
CUCCUGGAGUGGAUCCGGCGCACCAUCCCCUGGCUGGAGGACCGUGUGCCCCAAAAGACUAUCCAGGAGAUGCAGCAGAAGCUGGAGGAC | -4.27
CCUGUGCUACACAUCGUAUGUACCGAAUCGGGGUUUUUGGGGAAAAAAAGGGGAAAGGGGAAAGUAUUAUGUUACGCCGUUCGGAUCUGC | -0.978
CUCCAGAAAGCAGUGGGGCCUGAGAUCACCAAGACAGACCUGGUCCCUGCCUUCCAGAACCUGAUGAAAGACUGUGAGGCCGAGGUGAGG | -1.58
UCAAGUCCUGUGCUACACAUCGUAUGUACCGAAUCGGGUGGGAAAAAGGGUGGGAAAGUAUUAUGUUACGCCGUUCGGAUCUGCACUUCC | -1.04
CCUCAAGUCCUGUGCUACACAUCGUAUGUACCGAAUCGGGAAGGAAGGAAGGAAAGUAUUAUGUUACGCCGUUCGGAUCUGCACUUCCAG | -0.852
GCAGGAAGUAAAAACAAAUGGGAAUGCUUCGGAUAGUGGCAGGGGUGGGGGUUGCUAAGGAAAGGGUGGGAUGGGAGUGGGUAAAGAGUU | 1.43
GCUGUGACCCCAACGCCGGUGCCCGUGGUCGGGAGCCAGAUGACCAGACAAGCCCGGCGCCUCUACGUGGGCAACAUCCCCUUUGGCAUC | -0.135
UAACUUUAGAGGAGGAUCUGAUGGAUAUGGCAGUGGACGUGGAUUUGUGGAUGGCUAUAAUGGGUAUGGAGGAGGACCUGGAGGUGGCAA | 0.847

Study 2
Target: Max dimerization protein 1, bHLH-zipper, MAX partner unstated (MXD1, Homo sapiens, UniProt Q05195, residues 56-136)
Method: protein-binding microarray
Form: double-stranded DNA, one strand shown
Matrix: in vitro
Tested at: not given
Setting: k-mer, scored over probes, only values ≥0.25
Direction: higher = stronger binding
Target sequence (chain): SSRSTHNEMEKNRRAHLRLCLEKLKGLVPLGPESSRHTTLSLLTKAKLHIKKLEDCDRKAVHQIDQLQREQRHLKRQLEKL
Strand | E-score
ACCCCCCC | 0.28
CATGGGGA | 0.373
ACGCGGTG | 0.29
ATGTGCTG | 0.288
AGGCATGA | 0.302
ACGCTCGC | 0.264
AGTCCACG | 0.318

Study 3
Target: Histone acetyltransferase KAT6A, winged helix 2, GST fusion (KAT6A, Homo sapiens, UniProt Q92794, residues 85-181)
Method: protein binding microarray
Form: double-stranded DNA, one strand shown
Matrix: in vitro
Tested at: not given
Setting: 8-mer, flanks averaged, mean of 2 arrays, mostly near background
Reference: not given
Direction: higher = stronger binding
Construct (chain): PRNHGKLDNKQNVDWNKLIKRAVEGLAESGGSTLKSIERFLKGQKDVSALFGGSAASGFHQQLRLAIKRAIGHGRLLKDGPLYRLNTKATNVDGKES
Strand | E-score
GGGTGTAC | -0.176
AGTGTACA | 0.0008
CGAGATAA | 0.145
AGGGCTCC | -0.107
TGAAACCA | 0.0722
TATTGCCA | -0.0997

Mixed results
Substance | target | assay | test system | setting | scale | measurement | result
PhoQ, residues 284 288 289 292 302 303 SSCLAV | PhoP, residues 12 14 15 18 19 LHTVM (Escherichia coli, UniProt P23836) | Sort-seq, measured: YFP reporter | E. coli | PhoQ-PhoP variant library, with: 10 µM Mg2+ | reference: high Mg2+ state, higher = stronger signaling | fold induction | 7.38

A few entries again (study 2):
Strand | E-score
ACCCCCCC | 0.28
CATGGGGA | 0.373
ACGCGGTG | 0.29
